Measured values of several laboratories.
Protocols differ between the studies behind these lines. ± gives the spread as reported.

SMILES | organism | assay | system | conditions | IC50 [µM]
CC(C)C1CCC(C)C23CC4CC5=C(OC4(C)C2C13)C(C)(C)C(=O)C(=C(O)C=Cc1ccccc1)C5=O (stereo not drawn) | human respiratory syncytial virus | viral replication, CPE reduction | HEp-2, A2 |  | 31.2 ± 8.75
COc1ccccc1NC(=O)OC1C(C)C(OC)C=COC2(C)Oc3c(C)c(O)c4c(c3C2=O)C2=NC3(CCN(CC(C)C)CC3)NC2=C(NC(=O)C(C)=CC=CC(C)C(O)C(C)C(O)C1C)C4=O (stereo not drawn) | Mycobacteroides abscessus | intracellular bacterial growth | THP-1 derived macrophages, ATCC 19977 |  | 0.01
C=C1CCC2Cc3c(c(C)c(O)c(C(=O)C=Cc4ccccc4)c3OC)OC2(C)CCC2C1CC2(C)C (stereo not drawn) | human respiratory syncytial virus | viral replication, CPE reduction | HEp-2, A2 |  | 50
Oc1ccc(/C=C/c2ccc(O)cc2)cc1 | Streptococcus mutans | biofilm formation, crystal violet |  |  | 344
O=[N+]([O-])c1ccc(/C=N/N=C/c2ccc(O)cc2)s1 | Trypanosoma congolense | parasite growth, CellTiter-Glo | IL3000 bloodstream form | 72 h, 33 °C | 0.04 ± 0.01
CCCCCCCCCC1CC2CCC3CC(CCCCCCCCC)NC(=N1)N23 (stereo not drawn) | Mycobacterium intracellulare | microbial growth | ATCC23068 |  | 7.41
COc1cc(O)cc(/C=C/c2ccccc2)c1 | Streptococcus mutans | biofilm formation, crystal violet |  |  | 477
COc1c(C)c2c(c(O)c1C(=O)C=Cc1ccccc1)CC1CCC(C)=CCC(C)(C)C=CCC1(C)O2 (stereo not drawn) | human respiratory syncytial virus | viral replication, CPE reduction | HEp-2, A2 |  | 49.6 ± 3.16
O=C1CSC(c2cccc(Br)c2)N1c1cc(Cl)ccc1O (stereo not drawn) | Listeria | Listeria comet tail motility, inhibitor | SK-OV-3 |  | 31
Nc1ncnc2c(CN3C[C@H](CSc4cnccn4)[C@@H](O)C3)c[nH]c12 | Campylobacter jejuni | cell growth | Mueller-Hinton broth | 16.4 h | 2.9 ± 0.9
CC1(C)C(=O)C(=C(O)C=Cc2ccccc2)C(=O)C2=C1OC1(CC2)CCC2CC1C2(C)C (stereo not drawn) | human respiratory syncytial virus | viral replication, CPE reduction | HEp-2, A2 |  | > 50
O=[N+]([O-])c1ccc(/C=N/N=C/c2ccc(Br)cc2)s1 | Trypanosoma brucei rhodesiense | parasite growth, CellTiter-Glo | IL1501 bloodstream form | 72 h | 0.94 ± 0.31
C=C1CCC2CC3=C(OC2(C)CCC2C1CC2(C)C)C(C)(C)C(=O)C(=C(O)C=Cc1ccccc1)C3=O (stereo not drawn) | human respiratory syncytial virus | viral replication, CPE reduction | HEp-2, A2 |  | 25.8 ± 3.75
O=[N+]([O-])c1ccc(/C=N/N=C/c2ccc(Cl)cc2)o1 | Trypanosoma brucei rhodesiense | parasite growth, CellTiter-Glo | IL1501 bloodstream form | 72 h | 1.26 ± 0.15
CCN(CC)CC#CCNc1ccnc2cc(Cl)ccc12 | Plasmodium falciparum | schizont maturation | field isolates | Albumax medium | 0.11
CCCCCCC[C@@H](CO)NCc1c[nH]c2c(N)ncnc12 | Campylobacter jejuni | colony formation |  | 144 h, Mueller-Hinton agar | 5.6 ± 0.8
COc1ccc(/C=N/N=C/c2ccc([N+](=O)[O-])o2)cc1 | Trypanosoma brucei rhodesiense | parasite growth, CellTiter-Glo | IL1501 bloodstream form | 72 h | 2.88 ± 0.51
CC(C)C1CCC2(C)C3CCC4(CCC5=C(O4)C(C)(C)C(=O)C(=C(O)C=Cc4ccccc4)C5=O)C2C13 (stereo not drawn) | human respiratory syncytial virus | viral replication, CPE reduction | HEp-2, A2 |  | 6.32 ± 0.69
N=C(N)c1ccc(/C=C/c2ccc(C(=N)N)cc2O)cc1 | Streptococcus mutans | biofilm formation, crystal violet |  |  | 104
O=[N+]([O-])c1ccc(/C=N/N=C/c2ccc(Cl)cc2)s1 | Trypanosoma brucei rhodesiense | parasite growth, CellTiter-Glo | IL1501 bloodstream form | 72 h | 0.95 ± 0.27
C=C1CC[C@@H]2Cc3c(O)c(C(=O)/C=C/c4ccccc4)c(OC)c(C)c3O[C@@]2(C)CC[C@@H]2[C@@H]1CC2(C)C | human respiratory syncytial virus | viral replication, CPE reduction | HEp-2, A2 |  | 50
O=[N+]([O-])c1ccc(/C=N/N=C/c2ccccc2)s1 | Trypanosoma congolense | parasite growth, CellTiter-Glo | IL3000 bloodstream form | 72 h, 33 °C | 0.1 ± 0.04
CCCCCCCCCC1CC2CCCC3CC(CCCCCCCCC)NC(=N1)N23 (stereo not drawn) | Mycobacterium intracellulare | microbial growth | ATCC23068 |  | 9.81
COC1C=COC2(C)Oc3c(C)c(O)c4c(c3C2=O)C2=NC3(CCN(CC(C)C)CC3)NC2=C(NC(=O)C(C)=CC=CC(C)C(O)C(C)C(O)C(C)C(OC(=O)c2cncnc2)C1C)C4=O (stereo not drawn) | Mycobacteroides abscessus |  | ATCC 19977 | 1:1 CAMHB:human serum | 0.048
CCCCCCSC[C@H]1CN(Cc2c[nH]c3c(N)ncnc23)C[C@@H]1O | Campylobacter jejuni | colony formation |  | 144 h, Mueller-Hinton agar | 1.3 ± 0.7
COC1C=COC2(C)Oc3c(C)c(O)c4c(c3C2=O)C2=NC3(CCN(CC(C)C)CC3)NC2=C(NC(=O)C(C)=CC=CC(C)C(O)C(C)C(O)C(C)C(OC(=O)Nc2cccnn2)C1C)C4=O (stereo not drawn) | Mycobacteroides abscessus |  | ATCC 19977 | 50% human serum | 0.26
CC1(C)C(=O)C(=C(O)C=Cc2ccccc2)C(=O)C2=C1OC1(C)C(C2)CC2CC1C2(C)C (stereo not drawn) | human respiratory syncytial virus | viral replication, CPE reduction | HEp-2, A2 |  | > 50

A few entries again:
SMILES | organism | assay | system | conditions | IC50 [µM]
CC(C)C1CCC(C)C23CC4CC5=C(OC4(C)C2C13)C(C)(C)C(=O)C(=C(O)C=Cc1ccccc1)C5=O (stereo not drawn) | human respiratory syncytial virus | viral replication, CPE reduction | HEp-2, A2 |  | 31.2 ± 8.75
COc1ccccc1NC(=O)OC1C(C)C(OC)C=COC2(C)Oc3c(C)c(O)c4c(c3C2=O)C2=NC3(CCN(CC(C)C)CC3)NC2=C(NC(=O)C(C)=CC=CC(C)C(O)C(C)C(O)C1C)C4=O (stereo not drawn) | Mycobacteroides abscessus | intracellular bacterial growth | THP-1 derived macrophages, ATCC 19977 |  | 0.01
C=C1CCC2Cc3c(c(C)c(O)c(C(=O)C=Cc4ccccc4)c3OC)OC2(C)CCC2C1CC2(C)C (stereo not drawn) | human respiratory syncytial virus | viral replication, CPE reduction | HEp-2, A2 |  | 50
Oc1ccc(/C=C/c2ccc(O)cc2)cc1 | Streptococcus mutans | biofilm formation, crystal violet |  |  | 344
